Measured values collected from several papers.
Numbers after ± are the reported error.
OPRD1: Delta-type opioid receptor (OPRD1, Homo sapiens, UniProt P41143)
UniProt P41143, sequence (whole entry, looked up): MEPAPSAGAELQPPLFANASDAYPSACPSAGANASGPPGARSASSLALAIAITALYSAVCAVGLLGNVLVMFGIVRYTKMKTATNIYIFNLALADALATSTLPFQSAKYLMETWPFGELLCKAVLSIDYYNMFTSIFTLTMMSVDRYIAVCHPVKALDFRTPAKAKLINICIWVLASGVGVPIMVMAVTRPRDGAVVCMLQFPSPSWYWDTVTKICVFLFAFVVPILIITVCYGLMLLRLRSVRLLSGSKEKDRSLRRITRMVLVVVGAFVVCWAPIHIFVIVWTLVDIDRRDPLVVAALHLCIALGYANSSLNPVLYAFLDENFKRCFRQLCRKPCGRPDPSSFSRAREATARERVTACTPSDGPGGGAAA
OPRD1 with β-arrestin2: Delta-type opioid receptor, with β-arrestin2 (OPRD1, Homo sapiens, UniProt P41143)

| Compound | target | effect on | mode | method | cell line | notes | Emax |
| --- | --- | --- | --- | --- | --- | --- | --- |
| C[C@H]1[C@H]2CCC[C@]1(c1cccc(O)c1)CCN2CCc1ccccc1 | OPRD1 | GTPγS binding | agonist | radiometric |  | cell membranes | -20.3% |
| CCCC[C@H](NC(=O)[C@H](Cc1ccccc1)NC(=O)CNC(=O)[C@@H](C)NC(=O)[C@@H](N)Cc1ccc(O)cc1)C(=O)N[C@@H](CO[C@@H]1O[C@H](CO)[C@@H](O)[C@H](O)[C@H]1O)C(=O)N[C@@H](CC(C)C)C(=O)N[C@@H](Cc1c[nH]c2ccccc12)C(=O)NCc1cc(C(F)(F)F)cc(C(F)(F)F)c1 | OPRD1 | GTPγS binding | agonist | radiometric |  |  | 134% |
| CCCCCCCCN1CCC23c4c5ccc(O)c4OC2c2nc4ccccc4cc2CC3(O)C1C5 (stereo not drawn) | OPRD1 with β-arrestin2 |  |  |  | human cells |  | 64 ± 2% |
| CCCC[C@@H]1NC(=O)[C@H](Cc2ccccc2)NC(=O)CNC(=O)[C@H](NC(=O)[C@@H](N)Cc2ccc(O)cc2)C(C)(C)SSC(C)(C)[C@@H](C(=O)N[C@@H](Cc2c[nH]c3ccccc23)C(=O)NCc2cc(C(F)(F)F)cc(C(F)(F)F)c2)NC(=O)[C@@H]2CCCN2C1=O | OPRD1 | GTPγS binding | agonist | radiometric |  | cell membranes | 63% |
| Cc1cc(O)cc(C)c1C[C@H](N)C(=O)N[C@H](C)C(=O)NCC(=O)N[C@@H](Cc1ccccc1)C(=O)NNC(=O)[C@H](Cc1ccccc1)NC(=O)CNC(=O)[C@@H](C)NC(=O)[C@@H](N)Cc1c(C)cc(O)cc1C | OPRD1 | GTPγS binding | agonist | radiometric |  | cell membranes | 35 to 60% |
| N=C(N)NCCCCCCCN1CC[C@]23c4c5ccc(O)c4O[C@H]2c2nc4ccccc4cc2C[C@@]3(O)[C@H]1C5 | OPRD1 with β-arrestin2 |  |  |  | human cells |  | 72 ± 3% |
| C[C@@H](NC(=O)[C@@H](N)Cc1ccc(O)cc1)C(=O)NCC(=O)N[C@@H](Cc1ccc(F)cc1)C(=O)N1CCN(C(=O)[C@H](Cc2ccc(F)cc2)NC(=O)CNC(=O)[C@@H](C)NC(=O)[C@@H](N)Cc2ccc(O)cc2)CC1 | OPRD1 | GTPγS binding | agonist |  |  | cell membranes | 94.1% |
| N=C(N)NCCCCCN1CC[C@]23c4c5ccc(O)c4O[C@H]2c2[nH]c4ccccc4c2C[C@@]3(O)[C@H]1C5 | Delta-type opioid receptor, with Gi1 (OPRD1, Homo sapiens, UniProt P41143) |  |  |  | human cells |  | 76 ± 3% |
| C[C@@H](NC(=O)[C@@H](N)Cc1ccc(O)cc1)C(=O)NCC(=O)N[C@@H](Cc1ccc(F)cc1)C(=O)Nc1ccccc1NC(=O)[C@H](Cc1ccc(F)cc1)NC(=O)CNC(=O)[C@@H](C)NC(=O)[C@@H](N)Cc1ccc(O)cc1 | OPRD1 | GTPγS binding | agonist |  |  | cell membranes | 71.6% |
| CCCC[C@H](NC(=O)[C@H](Cc1ccccc1)NC(=O)CNC(=O)[C@@H](C)NC(=O)[C@@H](N)Cc1ccc(O)cc1)C(=O)N1CCC[C@H]1C(=O)N[C@@H](CC(C)C)C(=O)N[C@@H](CO[C@@H]1O[C@H](CO)[C@@H](O)[C@H](O)[C@H]1O)C(=O)N[C@@H](Cc1c[nH]c2ccccc12)C(=O)NCc1cc(C(F)(F)F)cc(C(F)(F)F)c1 | OPRD1 | GTPγS binding | agonist | radiometric |  |  | 49% |
| CC(C)C[C@H](NC(=O)[C@@H]1CCCN1C(=O)[C@@H]1NC(=O)[C@H](Cc2ccccc2)NC(=O)CNC(=O)[C@H](NC(=O)[C@@H](N)Cc2ccc(O)cc2)C(C)(C)SSC1(C)C)C(=O)N[C@@H](Cc1c[nH]c2ccccc12)C(=O)NCc1cc(C(F)(F)F)cc(C(F)(F)F)c1 | OPRD1 | GTPγS binding | agonist | radiometric |  | cell membranes | 49% |
| Cc1cc(O)cc(C)c1C[C@H](N)C(=O)N1Cc2ccccc2C[C@H]1C(=O)NCC(=O)NCc1ccccc1 | OPRD1 | GTPγS binding | agonist | radiometric |  | cell membranes | 6.8% |

Repeated from above:
| Compound | target | effect on | mode | method | cell line | notes | Emax |
| --- | --- | --- | --- | --- | --- | --- | --- |
| C[C@@H](NC(=O)[C@@H](N)Cc1ccc(O)cc1)C(=O)NCC(=O)N[C@@H](Cc1ccc(F)cc1)C(=O)N1CCN(C(=O)[C@H](Cc2ccc(F)cc2)NC(=O)CNC(=O)[C@@H](C)NC(=O)[C@@H](N)Cc2ccc(O)cc2)CC1 | OPRD1 | GTPγS binding | agonist |  |  | cell membranes | 94.1% |
